# Experimental data collected from several papers.
# A part holds a random share of what one study measured. Substitutions count along the parent as printed.

# Series 1
# Target: Histone acetyltransferase KAT6A, winged helix 2, GST fusion (KAT6A, Homo sapiens, UniProt Q92794, residues 85-181)
# Technique: protein binding microarray
# Form: double-stranded DNA, one strand shown
# Sample: in vitro
# Concentration: not given
# Notes: 8-mer, flanks averaged, mean of 2 arrays, mostly near background
# Reference: not given
# Reading: higher = stronger binding
# Construct (chain): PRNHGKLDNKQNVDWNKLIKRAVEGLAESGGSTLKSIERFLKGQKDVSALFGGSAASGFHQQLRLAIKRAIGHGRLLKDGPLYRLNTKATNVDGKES
Oligonucleotide,E-score
CAAGGAAC,0.134
GAAGAAGA,0.127
CAGCCATG,0.00456
TTAGACAA,0.0233
GCAATGAA,0.0371
AGAGCTGC,-0.0892
AAGTTGAG,-0.109
CGGCGGCA,0.225
CTAAATAA,0.0656
GCTCCTCC,-0.0808
CCTGAGAC,0.0749
AATCACAT,-0.191
CTACCTAA,-0.0227
GTCCTGGA,0.0555
AATCTAGC,-0.0802
TAGCAAGA,-0.00067
CACGCAGG,0.131
GGGCGTAA,-0.151
AAGACTTG,-0.169
AATGCTCA,0.0436
CACCGTCG,0.117

# Series 2
# Target: Sal-like protein 4, full length isoform A (SALL4, Homo sapiens, UniProt Q9UJQ4, residues 1-1053)
# Sequence of UniProt Q9UJQ4 (whole entry, looked up): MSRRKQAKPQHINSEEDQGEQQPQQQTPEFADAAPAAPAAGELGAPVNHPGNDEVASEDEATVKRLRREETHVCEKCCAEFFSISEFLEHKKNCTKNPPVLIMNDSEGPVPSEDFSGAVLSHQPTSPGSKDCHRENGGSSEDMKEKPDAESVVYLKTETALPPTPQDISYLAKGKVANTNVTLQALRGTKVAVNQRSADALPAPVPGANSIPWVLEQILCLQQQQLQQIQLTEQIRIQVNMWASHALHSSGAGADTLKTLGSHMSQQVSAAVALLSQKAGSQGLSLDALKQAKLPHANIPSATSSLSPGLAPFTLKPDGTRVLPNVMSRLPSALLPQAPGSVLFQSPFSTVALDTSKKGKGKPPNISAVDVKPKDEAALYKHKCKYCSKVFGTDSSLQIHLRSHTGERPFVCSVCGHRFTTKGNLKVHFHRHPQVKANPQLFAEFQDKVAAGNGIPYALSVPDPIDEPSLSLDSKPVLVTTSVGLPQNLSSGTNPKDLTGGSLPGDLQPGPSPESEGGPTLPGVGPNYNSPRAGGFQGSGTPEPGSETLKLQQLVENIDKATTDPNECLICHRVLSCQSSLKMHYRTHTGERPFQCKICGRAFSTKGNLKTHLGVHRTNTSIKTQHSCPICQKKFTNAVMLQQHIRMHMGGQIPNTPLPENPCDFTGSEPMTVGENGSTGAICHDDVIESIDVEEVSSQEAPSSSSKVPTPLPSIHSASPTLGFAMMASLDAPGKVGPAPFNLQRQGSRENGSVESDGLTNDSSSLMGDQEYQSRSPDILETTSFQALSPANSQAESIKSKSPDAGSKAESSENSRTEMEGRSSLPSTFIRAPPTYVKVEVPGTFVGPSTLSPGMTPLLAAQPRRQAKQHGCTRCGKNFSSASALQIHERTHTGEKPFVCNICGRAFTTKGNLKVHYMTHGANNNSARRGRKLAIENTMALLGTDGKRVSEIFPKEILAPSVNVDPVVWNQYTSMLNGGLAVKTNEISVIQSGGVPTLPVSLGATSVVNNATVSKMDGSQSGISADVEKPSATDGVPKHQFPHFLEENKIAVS
# Technique: universal PBM
# Form: double-stranded DNA, one strand shown
# Sample: in vitro
# Concentration: 600 nM
# Notes: 8-mer, flanks averaged, mean of replicates
# Reading: higher = stronger binding
Oligonucleotide,E-score
ACGCTGGC,-0.318
ACTGATAT,0.178
CCTACTAG,-0.0733
ATATGCCC,0.0212
ATAGTTTA,0.263
CGCAGGAG,-0.145
AACTTCTA,0.109
GGTCCACA,-0.203
AGAAATGA,0.328
ATTTTCAC,0.236
AGCATTGA,0.069
CCACCTAA,-0.0536
GATTTTAC,0.193
GTAATGTA,0.229
AGTCTGAA,-0.0265
CTATCAGC,0.118
CGCCAAGA,-0.233
AGTGTGAC,0.0312
CGATAAGC,-0.0879
CAGCTATG,0.15
CAACAAGA,0.117
ATCGGACA,-0.0554
GCGAACAC,-0.27
CCTATTCG,-0.0686
GCACCAAA,0.122

# Series 3
# Target: Prothrombin, mature alpha-thrombin (F2, Homo sapiens, UniProt P00734)
# Technique: aptamer microarray, sandwich
# Form: DNA with 2'F-ANA
# Sample: in vitro
# Concentration: 200 nM
# Notes: whole 15-mer aptamer, many near background
# Together with: Cy3 exosite-II aptamer, 400 nM
# Reading: higher = stronger binding
# Oligonucleotide: GGTTGGTGTGGTTGG
Modification,mean fluorescence intensity
2'F-ANA at 1 2 3 11 12 14,85.9 a.u.
2'F-ANA at 2 3 4 11 13,437 a.u.
2'F-ANA at 5 6 7 8 10 11 14 15,45.5 a.u.
2'F-ANA at 4 5 8 11 12 14 15,54.5 a.u.
2'F-ANA at 2 4 5 8 10 11 13 14,40.7 a.u.
2'F-ANA at 1 2 8 10 11 15,52.2 a.u.
2'F-ANA at 1 2 3 4 7 8 10 11 12 13 14 15,52.7 a.u.
2'F-ANA at 2 3 5 6 7 8 9 10 14,52.2 a.u.
2'F-ANA at 1 2 4 5 6 9 11 13 14 15,48.2 a.u.
2'F-ANA at 3 5 6 7 9 10 11 12 13 15,58.2 a.u.
2'F-ANA at 1 2 3 4 5 6 7 9 11 13 14,49.6 a.u.
2'F-ANA at 1 2 3 5 6 7 10 11 12 14,63.9 a.u.
2'F-ANA at 1 4 5 7 9 10 11 14 15,106 a.u.
2'F-ANA at 6 10 11 12 14 15,109 a.u.
2'F-ANA at 1 2 3 9 12,480 a.u.
2'F-ANA at 1 3 4 5 6 7 9 10 12 13 14,47.6 a.u.
2'F-ANA at 3 5 6 10 11 12 13,64.3 a.u.
2'F-ANA at 2 3 9 10 12 14 15,279 a.u.

# Series 4
# Target: CCNA1, cyclin fold, Cln2 fusion (human)
# Technique: yeast growth competition, sequencing
# Sample: yeast
# Notes: weak parent motif
# Reference: not given
# Reading: higher = stronger binding
# Parent: EXO1 docking peptide (human); KPECGRVQRAIFQ; partner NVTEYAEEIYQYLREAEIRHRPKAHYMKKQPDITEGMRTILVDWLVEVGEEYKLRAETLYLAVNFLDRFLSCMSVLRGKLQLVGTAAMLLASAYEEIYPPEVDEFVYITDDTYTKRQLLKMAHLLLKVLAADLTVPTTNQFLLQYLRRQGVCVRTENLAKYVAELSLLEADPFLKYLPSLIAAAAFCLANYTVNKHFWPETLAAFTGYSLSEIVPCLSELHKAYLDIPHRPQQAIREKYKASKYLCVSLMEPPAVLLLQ
Substitution,normalised enrichment score
F12A,0.105
R9A,-0.0655
V7A,-0.0418
Q8A,-0.00593
K1A,-0.273
I11A,-0.0683

# Series 5
# Target: ABI1, truncated, D143A, DHFR fusion (Arabidopsis thaliana)
# Technique: DHFR PCA, deep sequencing
# Sample: yeast
# Notes: methotrexate growth selection, single substitutions
# Together with: (+)-ABA 0 µM
# Reference: wild-type fitted maximum
# Reading: higher = stronger binding
# Parent: PYL1, truncated, DHFR fusion (Arabidopsis thaliana); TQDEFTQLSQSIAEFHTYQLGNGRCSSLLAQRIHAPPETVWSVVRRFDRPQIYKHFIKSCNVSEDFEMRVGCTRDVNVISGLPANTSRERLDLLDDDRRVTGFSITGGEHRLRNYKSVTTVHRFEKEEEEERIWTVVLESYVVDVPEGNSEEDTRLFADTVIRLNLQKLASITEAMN
Substitution,relative binding score [%]
T101K,0.753
Q19E,50.7
D3Q,38.9
E139N,-7.51
F66N,-0.552
K58S,8.4
F15G,1.88
E147K,3.93
D144P,-2.94
Q2S,25.3
S117N,-7.28
R111F,-1.92
M176F,-1.21
T1Q,25.5

# Series 6
# Target: CEBPD, bZIP domain (human)
# Technique: DHFR protein complementation
# Sample: yeast
# Notes: single substitutions, most at no-binding floor
# Reference: wild-type JUN-FOS pair
# Reading: higher = stronger binding
# Parent: JUN, bZIP domain (human); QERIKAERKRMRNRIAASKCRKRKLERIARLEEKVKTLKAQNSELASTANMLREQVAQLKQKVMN; partner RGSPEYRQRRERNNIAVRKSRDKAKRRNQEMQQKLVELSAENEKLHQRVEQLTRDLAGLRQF
Substitution,binding fitness [natural log]
K34Q,-1.4
E32T,-1.42
Q58P,-1.49
S47P,-1.44
E33C,-1.49
N42F,-1.43
L59R,-1.46
A29I,-1.15
M51P,-1.48
L45C,-1.43
R53V,-1.32
T48G,-1.51
I28E,-1.22
E54S,-1.37
A46D,-1.45

# Series 7
# Target: Myc proto-oncogene protein, bHLH-zipper, MAX partner unstated (MYC, Homo sapiens, UniProt P01106, residues 368-449)
# Sequence of UniProt P01106 (368-449, looked up): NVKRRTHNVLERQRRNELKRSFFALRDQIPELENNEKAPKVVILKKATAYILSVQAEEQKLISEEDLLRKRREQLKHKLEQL
# Technique: protein-binding microarray
# Form: double-stranded DNA, one strand shown
# Sample: in vitro
# Concentration: not given
# Notes: k-mer, scored over probes, only values ≥0.25
# Reading: higher = stronger binding
Oligonucleotide,E-score
ACATGCCT,0.345
CGCCATGA,0.295
ACGAGCAC,0.291
CCACACCC,0.33
ACGATGCC,0.262
CTGTGCGC,0.282
GTGTGGCA,0.324
GTGGCGTA,0.287
ACATGTGG,0.478
ACGGGGGC,0.257
ACGTGAAA,0.251
AAACCATG,0.354
ACCACGTC,0.333
CCACGAGC,0.373
CACACGCG,0.458

# Excerpt of the above (series 7):
Oligonucleotide,E-score
AAACCATG,0.354
GTGGCGTA,0.287
ACATGCCT,0.345
CACACGCG,0.458
ACGAGCAC,0.291
CCACGAGC,0.373
GTGTGGCA,0.324
CTGTGCGC,0.282
CCACACCC,0.33
ACGTGAAA,0.251
CGCCATGA,0.295
ACATGTGG,0.478
ACGGGGGC,0.257
ACGATGCC,0.262
ACCACGTC,0.333
